{"data": "Published values of several laboratories", "note": "Every numbered part comes from another study and shows a few of its results, in no order. Positions count from the first letter of the parent shown."}
{"data": "Series 1", "target": "CRIPT, C-terminal peptide", "method": "DHFR complementation, deep sequencing", "sample": "yeast", "setting": "single substitutions, model-inferred values", "relative to": "wild type", "direction": "higher = weaker binding", "starting sequence": "ERBIN, PDZ domain 1 (human); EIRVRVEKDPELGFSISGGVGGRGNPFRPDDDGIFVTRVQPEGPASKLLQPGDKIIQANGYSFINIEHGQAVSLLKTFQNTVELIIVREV; partner TKNYKQTSV"}
{"Variant": "N59T", "binding free energy change": "1.3 kcal/mol"}
{"Variant": "A58E", "binding free energy change": "0.488 kcal/mol"}
{"Variant": "L75E", "binding free energy change": "0.549 kcal/mol"}
{"Variant": "Q79M", "binding free energy change": "0.0445 kcal/mol"}
{"Variant": "V6W", "binding free energy change": "1.42 kcal/mol"}
{"Variant": "Q70F", "binding free energy change": "0.118 kcal/mol"}
{"Variant": "F35Y", "binding free energy change": "0.169 kcal/mol"}
{"Variant": "R23W", "binding free energy change": "-0.549 kcal/mol"}
{"Variant": "G21A", "binding free energy change": "0.202 kcal/mol"}
{"Variant": "E83D", "binding free energy change": "0.184 kcal/mol"}
{"Variant": "R3W", "binding free energy change": "0.22 kcal/mol"}
{"Variant": "G60H", "binding free energy change": "0.188 kcal/mol"}
{"Variant": "V39T", "binding free energy change": "0.33 kcal/mol"}
{"Variant": "I85G", "binding free energy change": "-0.0146 kcal/mol"}
{"Variant": "E11M", "binding free energy change": "-0.929 kcal/mol"}
{"Variant": "T77M", "binding free energy change": "0.037 kcal/mol"}
{"Variant": "Q57K", "binding free energy change": "-0.058 kcal/mol"}
{"Variant": "G19S", "binding free energy change": "1.31 kcal/mol"}
{"Variant": "N80L", "binding free energy change": "0.146 kcal/mol"}
{"Variant": "N65Y", "binding free energy change": "0.102 kcal/mol"}
{"data": "Series 2", "target": "Sal-like protein 4, full length isoform B (SALL4, Homo sapiens, UniProt Q9UJQ4-2, residues 1-616)", "method": "universal PBM", "form": "double-stranded DNA, one strand shown", "sample": "in vitro", "concentration": "not given", "setting": "8-mer, flanks averaged, mean of replicates", "direction": "higher = stronger binding"}
{"Oligonucleotide": "CGCGCCAC", "E-score": -0.161}
{"Oligonucleotide": "CCCACACC", "E-score": -0.0764}
{"Oligonucleotide": "CAAACGTC", "E-score": -0.0504}
{"Oligonucleotide": "AACGATTC", "E-score": 0.161}
{"Oligonucleotide": "CAAATGGG", "E-score": -0.045}
{"Oligonucleotide": "ACGACCTG", "E-score": -0.138}
{"Oligonucleotide": "CATCCAAA", "E-score": 0.00466}
{"Oligonucleotide": "ATCTCACA", "E-score": 0.135}
{"Oligonucleotide": "ATGGACCG", "E-score": -0.142}
{"Oligonucleotide": "ATCACCGC", "E-score": -0.115}
{"Oligonucleotide": "ATCGGCTC", "E-score": -0.247}
{"Oligonucleotide": "CGAACCTC", "E-score": -0.0832}
{"Oligonucleotide": "CCTGAATA", "E-score": -0.0478}
{"Oligonucleotide": "TATCTAGA", "E-score": 0.155}
{"Oligonucleotide": "GCATGGCC", "E-score": -0.137}
{"Oligonucleotide": "ACATTTTA", "E-score": 0.349}
{"Oligonucleotide": "AGAATGGA", "E-score": 0.0835}
{"Oligonucleotide": "ATTGAAGA", "E-score": 0.113}
{"Oligonucleotide": "CCTTGCCG", "E-score": -0.29}
{"Oligonucleotide": "AGGTATCG", "E-score": 0.00086}
{"Oligonucleotide": "ACGTTCAT", "E-score": 0.149}
{"Oligonucleotide": "GCCTACCC", "E-score": -0.211}
{"Oligonucleotide": "GGGCTATA", "E-score": -0.00342}
{"Oligonucleotide": "GCAAGTGC", "E-score": -0.248}
{"Oligonucleotide": "ACTTTTGA", "E-score": 0.185}
{"data": "Series 3", "target": "Histone acetyltransferase KAT6A, winged helix 1, GST fusion (KAT6A, Homo sapiens, UniProt Q92794, residues 1-85)", "method": "protein binding microarray", "form": "double-stranded DNA, one strand shown", "sample": "in vitro", "concentration": "not given", "setting": "8-mer, flanks averaged, mean of 2 arrays, mostly near background", "relative to": "not given", "direction": "higher = stronger binding", "Target sequence (chain)": "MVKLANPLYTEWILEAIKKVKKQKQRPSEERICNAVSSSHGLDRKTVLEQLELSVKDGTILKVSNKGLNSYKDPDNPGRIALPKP"}
{"Oligonucleotide": "CACCGGAC", "E-score": 0.129}
{"Oligonucleotide": "CGGTCCTC", "E-score": 0.203}
{"Oligonucleotide": "TCTGCAAA", "E-score": -0.193}
{"Oligonucleotide": "AGCAAAAA", "E-score": -0.208}
{"Oligonucleotide": "GTATCGCA", "E-score": 0.0713}
{"Oligonucleotide": "CACTATGC", "E-score": 0.0572}
{"Oligonucleotide": "AATCAAGG", "E-score": -0.0565}
{"Oligonucleotide": "CGTCTATA", "E-score": 0.0852}
{"Oligonucleotide": "ATTCTTTG", "E-score": -0.164}
{"Oligonucleotide": "AGTGCACA", "E-score": -0.144}
{"Oligonucleotide": "AAGAGGGT", "E-score": -0.124}
{"Oligonucleotide": "GCTCACTA", "E-score": 0.0324}
{"Oligonucleotide": "CCAAAGAG", "E-score": -0.219}
{"Oligonucleotide": "GGTACTCA", "E-score": -0.104}
{"Oligonucleotide": "GCCACGAA", "E-score": -0.164}
{"Oligonucleotide": "GATATCAA", "E-score": -0.0612}
{"Oligonucleotide": "AAGACTCA", "E-score": -0.246}
{"Oligonucleotide": "AAGAGTGT", "E-score": -0.251}
{"Oligonucleotide": "GACACTAA", "E-score": -0.0413}
{"Oligonucleotide": "GGGCAAGA", "E-score": -0.0808}
{"Oligonucleotide": "GAAGCGAA", "E-score": -0.006}
{"Oligonucleotide": "AACAGCTA", "E-score": -0.108}
{"Oligonucleotide": "GACGCCGC", "E-score": 0.436}
{"Oligonucleotide": "CTTAAAAA", "E-score": -0.192}
{"Oligonucleotide": "AACCAGAA", "E-score": -0.123}
{"data": "Series 4", "target": "Ras GTPase-activating protein-binding protein 1, RRM domain (G3BP1, Homo sapiens, UniProt Q13283)", "method": "RNA Bind-n-Seq", "form": "RNA", "sample": "in vitro", "concentration": "1 µM", "setting": "whole 134-nt RNA, ends assumed", "added": "150 mM KCl", "relative to": "input library", "direction": "higher = stronger binding", "shared flanks, not repeated": "GGGAGUUCUACAGUCCGACGAUC … UGGAAUUCUCGGGUGUCAAGG", "UniProt Q13283, sequence (whole entry, looked up)": "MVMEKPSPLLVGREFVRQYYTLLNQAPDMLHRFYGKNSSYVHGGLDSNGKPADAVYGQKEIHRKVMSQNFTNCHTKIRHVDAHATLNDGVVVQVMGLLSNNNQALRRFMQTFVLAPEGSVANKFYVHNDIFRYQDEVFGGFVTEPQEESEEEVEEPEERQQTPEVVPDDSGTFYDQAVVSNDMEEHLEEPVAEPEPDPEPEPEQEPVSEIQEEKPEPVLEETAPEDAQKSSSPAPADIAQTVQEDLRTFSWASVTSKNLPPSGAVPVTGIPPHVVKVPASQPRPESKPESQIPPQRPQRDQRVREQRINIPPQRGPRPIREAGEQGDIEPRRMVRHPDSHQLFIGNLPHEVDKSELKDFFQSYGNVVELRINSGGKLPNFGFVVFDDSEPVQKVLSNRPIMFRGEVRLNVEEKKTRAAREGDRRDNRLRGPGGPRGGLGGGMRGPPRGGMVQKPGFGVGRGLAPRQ"}
{"Oligonucleotide": "UCCUGUGCUACACAUCGUAUGUACCGAAUCGGGGCCCCCCGGGCCCCCCGGCCCCCCGGAAAGUAUUAUGUUACGCCGUUCGGAUCUGCA", "log2 enrichment": -0.308}
{"Oligonucleotide": "CCUGUGCUACACAUCGUAUGUACCGAAUCGGGGUUUUUUUGGGGUUUUUUUGGGGUGGGGAAAGUAUUAUGUUACGCCGUUCGGAUCUGC", "log2 enrichment": 0.16}
{"Oligonucleotide": "GCAGGAAGUAAAAACAAAUGGAAAUGCUUCGGAUAGUGGCAGGGGUGGGGGUUGCUAAGGAAAGGGUUGGAUGGGAGUGGGUAAAGAGUU", "log2 enrichment": 1.52}
{"Oligonucleotide": "UUUCUAGGCAAGAGGAGGAACGACGUAGAAGAGAGGAAGAGAUGAUGAUUCGUCAACGUGAGAUGGAAGAACAAAUGAGGCGCCAAAGAG", "log2 enrichment": -0.2}
{"Oligonucleotide": "UUGUUUAGCAAUCAAGGAGACCGCGAAGGCGUACAUUCCCGGGUGUUGCUUCCAGGAGAAACCCUGAACGGAGAGCUCGUCCUCUUACCA", "log2 enrichment": -0.0402}
{"Oligonucleotide": "UGUGCGGGAGACAGGCGCCAACGGCACCUCUUUCAGUGUCCGCAAGACAGCCUACUGCGACAUCCACACGCCUCCAGGUUCAGCACGCCG", "log2 enrichment": -0.342}
{"Oligonucleotide": "CCUGUGCUACACAUCGUAUGUACCGAAUCGGGGCCCCCCGGCCCCCCGGGCCCCCCGGGGAAAGUAUUAUGUUACGCCGUUCGGAUCUGC", "log2 enrichment": -0.564}
{"Oligonucleotide": "AGUCCUGUGCUACACAUCGUAUGUACCGAAUCGGGGAAAGGGGAAAGGGGUUUGGGGAAAGUAUUAUGUUACGCCGUUCGGAUCUGCACU", "log2 enrichment": 1.66}
{"Oligonucleotide": "UAACUUUAGAGGAGGAUGUGAUGGAUAUGGCAGUGGACGUGGAUUUGGGGAUGGCUAUAAUGGGUAUGGAGGAGGACCUGGAGGUGGCAA", "log2 enrichment": -0.738}
{"data": "Series 5", "target": "RNA binding protein fox-1 homolog 2, RRM domain, GST-SBP tag (RBFOX2, Homo sapiens, UniProt O43251-10, residues 100-194)", "method": "RNA Bind-n-Seq", "form": "RNA", "sample": "in vitro", "concentration": "365 nM", "setting": "natural RNA segment, single round, ends assumed", "relative to": "no-protein control", "direction": "higher = stronger binding", "shared flanks, not repeated": "GGGAGUUCUACAGUCCGACGAUC … UGGAAUUCUCGGGUGCCAA", "Residues (chain)": "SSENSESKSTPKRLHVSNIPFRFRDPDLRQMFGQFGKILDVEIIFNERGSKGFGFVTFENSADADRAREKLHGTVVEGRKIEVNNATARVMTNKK"}
{"Oligonucleotide": "UACGUUGUGAGUCUGUUAUCUGUCCUAUCGCGUUUUUUAAAUGACUUUUUAUUCUUUAUCAUAGCUAAGUAAAUACCAAAAAAAAAAAAAAGCUUUGUAGGACACUUGUA", "RBNS enrichment (R)": 0.532}
{"Oligonucleotide": "GGAACACUGUACUGGCCACUUACCCUCUGGGGCCUCAGCUUUCCCUCCGGAAGGCUGGGAGGAGGUGGGCUAGAUGAUCUUUGGAGCUUAAGGAGUCCCAGCCCUUUCUC", "RBNS enrichment (R)": 0.435}
{"Oligonucleotide": "ACCCAGGGUAGGCUUUCCUUUGGAUCAUCUCCAAAUGGGAGUGCCAUGUGGCAGGAAAGAAGCACCGAUUUCAAGAAUUACUUCCUAGAGAAAGUCAGGAACUAGAGACC", "RBNS enrichment (R)": 0.294}
{"Oligonucleotide": "GUGUCCUUCUUCCUCAAGUCUUGACAAUUCCCGGGCCCUUCAGUCCCUGAGCAGUCUACUUCUGUGUCUGUCACCACAUCUUGUCUUUUCCCCUCAUUGCAUUUAUUGCA", "RBNS enrichment (R)": 0.421}
{"Oligonucleotide": "UGGUUUAGUUCUCCCCGCCUCCCUGUUUCUUGGAAAAGCUACAGGGUCCCUGUAGGGCAAAAUUCCCAGGCGCCUUGCUGCAGACAGAGUAAGACAAAAACACCAGGAAG", "RBNS enrichment (R)": 0.308}
{"Oligonucleotide": "CCGCCACAACCCUGCGUGUGGACCCUGGCAGGGGGGGGUGCCAGGCCCCUGGAAAGCAGGGGUUACCGUUACGAGGCUGUGGUCCGGGGCAAGCCAAGUACGAAGCAGCA", "RBNS enrichment (R)": 2.44}
{"Oligonucleotide": "AACAGAGCCAUUUUAGUCUUCAUAGUUAUCUGCUAAGAGAGAUAAUGAGCUGACUGUCUAUUUUAAACUCGAAGGUAAAAAAAUGUAUAUUAUAUUUUUUCACUAUAGGU", "RBNS enrichment (R)": 0.389}
{"Oligonucleotide": "UUCAUCCUUCCCUAAUGCCGUCUUGGGGCAGGGAUGGAAUAUGACCAGAAAGUUGUGGAUUAAAGGCCUGUGAAUACUGCUGAGCUUGUUGUUUGUAGAAGACCUCACUG", "RBNS enrichment (R)": 0.838}
{"note": "Excerpt of the above (series 3):"}
{"Oligonucleotide": "AGCAAAAA", "E-score": -0.208}
{"Oligonucleotide": "GTATCGCA", "E-score": 0.0713}
{"Oligonucleotide": "CACTATGC", "E-score": 0.0572}
{"Oligonucleotide": "AATCAAGG", "E-score": -0.0565}
{"Oligonucleotide": "CGTCTATA", "E-score": 0.0852}
{"Oligonucleotide": "ATTCTTTG", "E-score": -0.164}
{"Oligonucleotide": "AGTGCACA", "E-score": -0.144}
{"Oligonucleotide": "AAGAGGGT", "E-score": -0.124}
{"Oligonucleotide": "GCTCACTA", "E-score": 0.0324}
{"Oligonucleotide": "CCAAAGAG", "E-score": -0.219}
{"Oligonucleotide": "GGTACTCA", "E-score": -0.104}
{"Oligonucleotide": "GCCACGAA", "E-score": -0.164}
{"Oligonucleotide": "GATATCAA", "E-score": -0.0612}
{"Oligonucleotide": "AAGACTCA", "E-score": -0.246}
